Experimental data collected from several papers.
Each numbered part is a random draw from the data of one study; scales do not carry over between parts. Positions count from the first letter of the parent shown.

Sample 1
Target: ABI1, truncated, D143A, DHFR fusion (Arabidopsis thaliana)
Method: DHFR PCA, deep sequencing
Matrix: yeast
Notes: methotrexate growth selection, single substitutions
Added: (+)-ABA 0.0091 µM
Reference: wild-type fitted maximum
Reading: higher = stronger binding
Endpoint: relative binding score
Starting sequence: PYL1, truncated, DHFR fusion (Arabidopsis thaliana); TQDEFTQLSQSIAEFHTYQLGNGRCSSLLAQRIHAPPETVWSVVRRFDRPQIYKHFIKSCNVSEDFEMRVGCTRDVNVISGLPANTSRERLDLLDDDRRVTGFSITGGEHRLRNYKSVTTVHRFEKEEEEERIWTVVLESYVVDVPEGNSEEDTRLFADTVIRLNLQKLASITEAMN
V76K: -1.87%
T6C: 23.5%
L164K: -0.513%
R99L: 57.2%
V78K: 3.4%
G108N: -5.13%
V100C: 3.99%
N85A: 50.2%
V161T: 13%
N177F: 41.5%
S27A: 0.187%
A158P: -3.22%
E131C: 37.2%
C60P: -5.87%
L93V: 41.4%
V137T: 5.08%
A84D: 21.6%

Sample 2
Target: Histone acetyltransferase KAT6A, both winged helices, GST fusion (KAT6A, Homo sapiens, UniProt Q92794, residues 1-181)
Method: protein binding microarray
Molecule type: double-stranded DNA, one strand shown
Matrix: in vitro
Concentration: not given
Notes: 8-mer, flanks averaged, mean of 2 arrays, mostly near background
Reference: not given
Reading: higher = stronger binding
Endpoint: E-score
Residues (chain): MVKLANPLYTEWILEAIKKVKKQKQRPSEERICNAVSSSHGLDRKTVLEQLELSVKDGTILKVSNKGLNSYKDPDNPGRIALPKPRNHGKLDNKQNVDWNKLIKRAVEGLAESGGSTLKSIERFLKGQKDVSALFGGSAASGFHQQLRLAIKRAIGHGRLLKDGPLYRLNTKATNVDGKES
CTAGTGGC: -0.098
GAACATTC: -0.0336
ATAACGAT: -0.0399
GAATCGGC: 0.138
AATTACAT: -0.0186
ACTAAAAT: -0.0437
ACTAAACG: 0.0147
ATCCATGA: -0.231
ACAAGGGT: 0.0751
ATCACAAT: -0.0936
CAAATGGA: -0.163
ATACTAAG: -0.092
CAAAATTG: -0.201
AGTTGTCA: -0.0607
ATCGAGCA: -0.148
CTGGAAAC: -0.0664
TTAAAGAA: -0.00801
AGATATTC: -0.356
AACCCCAC: -0.149
AGCCTCCC: -0.104
CCGCAATA: 0.161
AGATGGCA: -0.0534
TCCCGAGA: 0.127
CGAGACAA: -0.155
CCCAAGGA: 0.016

Sample 3
Target: CCND2, cyclin fold, Cln2 fusion (human)
Method: yeast growth competition, sequencing
Matrix: yeast
Notes: weak parent motif
Reference: not given
Reading: higher = stronger binding
Endpoint: normalised enrichment score
Starting sequence: SAMHD1 docking peptide (human); ASKSRVQLFKDDP; partner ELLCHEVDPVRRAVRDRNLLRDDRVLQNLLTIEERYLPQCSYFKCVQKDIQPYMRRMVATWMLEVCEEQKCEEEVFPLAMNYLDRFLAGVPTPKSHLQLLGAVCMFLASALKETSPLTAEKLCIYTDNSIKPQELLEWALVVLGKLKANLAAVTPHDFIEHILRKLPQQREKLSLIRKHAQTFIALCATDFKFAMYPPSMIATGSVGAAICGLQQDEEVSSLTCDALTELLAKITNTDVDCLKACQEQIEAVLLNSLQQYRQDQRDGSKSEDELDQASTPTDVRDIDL
V6C: -0.204
S4H: 0.359
D11P: 0.444
L8S: -0.0934
D11H: 0.000919
S4M: 0.127
K3F: 0.275
K10P: 0.0977
R5N: -0.223
S2I: 0.511
R5A: 0.415
V6G: 0.221
L8N: 0.266
S2E: 0.312
R5K: 0.387
Q7Y: 0.0592
Q7V: 0.0594
L8G: 0.364
V6P: -0.222
K3R: 0.129
F9C: 0.0687
Q7C: 0.0587
Q7P: 0.146
D12I: 0.0336

Sample 4
Target: BATF, bZIP domain (human)
Method: DHFR protein complementation
Matrix: yeast
Notes: single substitutions, most at no-binding floor
Reference: wild-type JUN-FOS pair
Reading: higher = stronger binding
Endpoint: binding fitness
Starting sequence: JUN, bZIP domain (human); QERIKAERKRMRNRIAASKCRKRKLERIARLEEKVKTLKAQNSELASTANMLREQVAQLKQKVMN; partner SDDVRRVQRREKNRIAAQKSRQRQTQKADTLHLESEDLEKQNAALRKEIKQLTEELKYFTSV
E32Y: -0.25 natural log
T37G: 0.0133 natural log
Q41T: -0.0184 natural log
A46M: 0.0474 natural log
L52Y: -0.492 natural log
M51L: 0.0407 natural log
K36Y: -0.131 natural log
I28M: 0.00882 natural log
A29I: -0.0895 natural log
E54Y: -0.184 natural log
R53Q: -0.337 natural log
K34G: -0.18 natural log
L38I: -0.588 natural log

Sample 5
Target: RING finger protein unkempt homolog, zinc fingers 1-6, GST-SBP tag (UNK, Homo sapiens, UniProt Q9C0B0, residues 30-357)
UniProt Q9C0B0, sequence (30-357, looked up): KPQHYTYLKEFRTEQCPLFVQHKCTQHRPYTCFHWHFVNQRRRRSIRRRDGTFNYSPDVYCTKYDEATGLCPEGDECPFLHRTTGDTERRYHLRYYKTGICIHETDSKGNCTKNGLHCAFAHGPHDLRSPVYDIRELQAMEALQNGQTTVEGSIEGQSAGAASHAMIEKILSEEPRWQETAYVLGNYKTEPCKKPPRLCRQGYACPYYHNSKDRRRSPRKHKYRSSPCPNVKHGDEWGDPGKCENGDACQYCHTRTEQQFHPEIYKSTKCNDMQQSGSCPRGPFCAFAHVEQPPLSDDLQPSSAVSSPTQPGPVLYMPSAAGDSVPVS
Method: RNA Bind-n-Seq
Molecule type: RNA
Matrix: in vitro
Concentration: not given
Notes: RNA with constant flanks, human and mouse sites, ends assumed
Reference: input RNA pool
Reading: higher = stronger binding
Endpoint: bound/input enrichment
All sequences stand within: GGGAGUUCUACAGUCCGACGAUC … CAACAGAGGAUUGAGCAUCA
AGAGCUGCCCGUGGUGGGUGUCAGCAGUGUGUCAUGGUCGCCACACAGCAGGGGGUGUGAUAGGUCAGCCACGUGAUCCUCAUCUGCACAGAAGCAGAGAGGGCCCCAGGCCCCUGGCCU: 0.206 ratio
GAAGAGACAUAUGGACAAUGAAUCUGCAAAGGGAGAACACCUUUGGUCCUACAGUUUUGCUGACACUGACAUUUUUCUAAGUGGUCACAAAUAGCCUACUUUUUACAUAAAUAACUGGCU: 8.98 ratio
AAUUUCCUGUCAUACUUUUUAGACAUUCACAUCAGACUUACAGAGCACCUGGCCACAUUCUAGGUUUGUGUUAUUUCUCAGCUAUGGAUAUGAUCAAAUGAGAACACUGCUUAACUAAUG: 0.439 ratio
CAGAUCCGAUGCCUCUGCCAGCGUGGGGCUGAGGUCACUGUGGUACCCUGGGACCAUGCACUAGACAGCCAAGAGUAUGAGGGUCUCUUCUUAAGUAAUGGGCCUGGUGACCCUGCCUCC: 0.134 ratio
CAAGGCUGACAGUAACACUGAUGAAUGCUGAUAAUCAGGAAACAUGAAAGAAGCCAUUUGAUAGAUUAUUCUAAAGGAUAUCAUCAAGAAGACUAUUAAAAACACCUAUGCCUAUACUUU: 0.125 ratio
UUCAUUUUAGAGAAGAUACAAGGGAAAAUUACUAUAGAGAAUAGGUCAAAGAAAGAUUUGAUUCAAAUGUUAGUCCAGAGAGGUUAUGAAUCUGACCCAGUGAAAGCCUGGAAAGAAGCA: 12.1 ratio
UCCGGGGGCGGCACCGCCAGAAAACUGAUUGGGAGGUAGCUAUUAAAAGUAUUAAUAAAAAGAACUUGUCAAAAUCACAAAUACUGCUUGGAAAGGAAAUUAAAAUCUUAAAGGAACUUC: 0.57 ratio
AGUAGUUUUAAGCUUGUUUGCACAGUUCUUUUUUUCCAUUGGAAAUGGAAUUCAUUGCCUUAGGUCUUUUUAAAUAGUGUAUUAUUAUCGUUGGGGCUGGCUCUAUGCUUGAAAACCAGU: 31.6 ratio

Excerpt of the above (sample 4):
A29I: -0.0895 natural log
K36Y: -0.131 natural log
E54Y: -0.184 natural log
T37G: 0.0133 natural log
L52Y: -0.492 natural log
M51L: 0.0407 natural log
